Published values collected from several papers.
Compare with care: the assays were run in different laboratories. Numbers after ± are the reported error.
dncV: dncV (Vibrio cholerae, UniProt Q9KVG7)
Slc6a3: Sodium-dependent dopamine transporter (Slc6a3, Rattus norvegicus, UniProt P23977)
HSP90AA1: Heat shock protein HSP 90-alpha (HSP90AA1, Homo sapiens, UniProt P07900)
OPRD1 with Gi1: Delta-type opioid receptor, with Gi1 (OPRD1, Homo sapiens, UniProt P41143)
VHL with elongin B/C: von Hippel-Lindau disease tumor suppressor, with elongin B/C (VHL, Homo sapiens, UniProt P40337)
CNR1: Cannabinoid receptor 1 (CNR1, Homo sapiens, UniProt P21554)
Nucleoprotein monomeric: Nucleoprotein, monomeric (Influenza A virus, UniProt P15682)

SMILES	target	assay	test system	conditions	how to read	endpoint	value
Nc1nc2c([C@@H]3O[C@@H]4COP(=O)(O)O[C@H]5[C@@H](O)[C@H](c6snc7c(=O)[nH]c(N)nc67)O[C@@H]5COP(=O)(O)O[C@H]4[C@H]3O)snc2c(=O)[nH]1	dncV	substrate, HPLC	–	–	–	rate constant k1	1.26 ± 0.07 M⁻¹ s⁻¹
CNC(C)C(=O)c1cccc([N+](=O)[O-])c1 (centres unmarked)	Slc6a3	dopamine release, releaser	rat brain synaptosomes	added: [3H]dopamine	reference: compound over methamphetamine	potency ratio	25 fold
CCOC(=O)C1C(OC(c2ccc(Cl)cc2)c2ccc(Cl)cc2)CC2CCC1N2C (single isomer, unassigned)	DRD2 (Homo sapiens, UniProt P14416)	binding, radioligand displacement	–	inactive if below 75% at 10000 nM	–	Ki	inactive
Nc1nc2c([C@@H]3O[C@@H]4COP(=O)(O)O[C@H]5[C@@H](O)[C@H](c6scc7c(=O)[nH]c(N)nc67)O[C@@H]5COP(=O)(O)O[C@H]4[C@H]3O)scc2c(=O)[nH]1	dncV	first phosphodiester formation, substrate, HPLC	–	500 µM, 37 °C	–	rate constant k1	0.308 ± 0.003 M⁻¹ s⁻¹
C[N+](C)(C)CCOC(N)=O	CHRNA7/glc-2 (Homo sapiens, UniProt P36544+Q17328)	binding	–	24 or 48 h, 37 °C	–	Hill coefficient	1.09 ± 0.08
CCCCCn1cc(C(=O)c2ccc3ccccc3c2)c2ccccc21	CNR2 (Homo sapiens, UniProt P34972, V261L)	Gαi1 engagement, agonist, BRET	–	–	reference: reference agonist at wild-type CB2	Emax	64.5 ± 9.7%
CCC(C)n1c(C(=O)Nc2cnc(C(=O)NC)n(CC(C)C)c2=O)ncc(NC(=O)c2ncc(NC(=O)c3ccccc3)c(=O)n2CCc2ccc(OCc3ccccc3)cc2)c1=O (centres unmarked)	HSP90AA1	–	–	50 µM	–	inhibition	55.2%
N=C(N)NCCCCN1CC[C@]23c4c5ccc(O)c4O[C@H]2c2[nH]c4ccccc4c2C[C@@]3(O)[C@H]1C5	OPRD1 with Gi1	–	human cells	–	–	Emax	80 ± 5%
CCC(C)n1c(C(=O)Nc2cnc(C(=O)NC)n(CC(C)C)c2=O)ncc(NC(=O)c2ncc(NC(=O)c3ccccc3)c(=O)n2CCc2ccc(O)cc2)c1=O (centres unmarked)	HSP90AA1	–	–	50 µM	–	inhibition	31.3%
N=C(N)NCCCN1CC[C@]23c4c5ccc(O)c4O[C@H]2c2nc4ccccc4cc2C[C@@]3(O)[C@H]1C5	Delta-type opioid receptor, with β-arrestin2 (OPRD1, Homo sapiens, UniProt P41143)	–	human cells	–	–	Emax	91 ± 8%
CCCCCn1cc(C(=O)c2cccc3ccccc23)c2ccccc21	CNR2 (Homo sapiens, UniProt P34972, L182I)	Gαi1 engagement, agonist, BRET	–	–	reference: reference agonist at wild-type CB2	Emax	15.1 ± 3.6%
NC1=NN=Cc2ccccc2[O][V](=[O])[O]1.c1cnc2c(c1)ccc1cccnc12	PTPN22 (Homo sapiens, UniProt Q9Y2R2)	–	–	–	reference: IC50 LYP over IC50 YopH	selectivity ratio	68.2
CCCCCc1cc(O)c2c(c1)OC(C)(C)c1cc(O)c(C)cc1-2	Si (Rattus norvegicus, UniProt P23739)	inhibitor	–	–	–	Ki'	122 µM
CCOCC1CC(F)(F)CN1C1CCN(C(=O)c2ccc3cc[nH]c3c2)CC1 (centres unmarked)	VHL with elongin B/C	binding, TR-FRET	–	10 µM, 90 min, added: BODIPY FL VH032	–	inhibition	36.4%
CC1=C[C@H]2c3c(O)cc(CCc4ccccc4)cc3OC(C)(C)[C@@H]2CC1	CNR1	GTPγS binding, agonist, radiometric	–	cell membranes	–	Emax	142%
NCCCCCCCCN1CCC23c4c5ccc(O)c4OC2c2nc4ccccc4cc2CC3(O)C1C5 (centres unmarked)	Delta-type opioid receptor, with β-arrestin1 (OPRD1, Homo sapiens, UniProt P41143)	–	human cells	–	–	Emax	27 ± 2%

SMILES	target	assay	test system	conditions	how to read	endpoint	value
Cc1ccccc1N1C(=O)/C(=C/c2ccc(OCc3cccc(C(=O)O)c3)cc2)C(=O)NC1=S	PTPN2 (Homo sapiens, UniProt P17706)	phosphatase activity, inhibitor	–	–	reference: LYP IC50 over PTPN2 IC50 inverse	selectivity ratio	3 fold
CCCCCn1cc(C(=O)c2cccc3c2CC(C)(C)C3)c2ccccc21	CNR1	Gαi1 engagement, agonist, BRET	HEK293T	–	reference: reference agonist	Emax	116 ± 4.9%
O=C1CC(=O)N(c2ccccc2)c2cc(Cl)ccc2N1	Gabrg2/Gabra1, with β2 subunit (Rattus norvegicus, UniProt P18508+P62813)	positive allosteric modulator, whole-cell patch clamp	HEK293	α1β2γ2 subunits, added: GABA at EC10	–	Emax	143 ± 13%
CCCCCn1cc(C(=O)c2ccc3c(c2)CC(C)(C)C3)c2ccccc21	CNR2 (Homo sapiens, UniProt P34972, I110L)	Gαi1 engagement, agonist, BRET	–	–	reference: reference agonist at wild-type CB2	Emax	74.2 ± 7%
Cc1sc2c(c1C)C(c1ccc(Cl)cc1)=N[C@@H](CC(=O)OC(C)(C)C)c1nnc(C)n1-2	VHL with elongin B/C	TR-FRET	–	2.1 pM to 30 µM, 90 min	–	inhibition	inactive
CCC(C)n1c(C(=O)Nc2cnc(C(=O)NC)n(CC(C)C)c2=O)ncc(NC(=O)c2ncc(NC(=O)c3ccccc3)c(=O)n2Cc2ccc(O)cc2)c1=O (centres unmarked)	HSP90AA1	–	–	50 µM	–	inhibition	24.4%
Nc1nc2c([C@@H]3O[C@H](COP(=O)(O)OP(=O)(O)OP(=O)(O)O)[C@@H](O)[C@H]3O)snc2c(=O)[nH]1	dncV	first phosphodiester formation, substrate, HPLC	–	500 µM, 37 °C	–	rate constant k1	1.26 ± 0.07 M⁻¹ s⁻¹
COC(=O)c1ccc(-n2c(C)cc(/C=C3/C(=O)NC(=S)N(c4cccc(Cl)c4Cl)C3=O)c2C)c(C)c1	RORC (Homo sapiens, UniProt P51449)	cell-based	–	concentration not given	–	activity class	active
N=C(N)NCCCCCCCN1CC[C@]23c4c5ccc(O)c4O[C@H]2c2[nH]c4ccccc4c2C[C@@]3(O)[C@H]1C5	OPRD1 with Gi1	–	human cells	–	–	Emax	40 ± 2%
CCCCCn1c2ccccc2c2cc(C(=O)c3cccc4ccccc34)ccc21	CNR1	GTPγS binding, agonist	–	cell membranes	–	Emax	107%
COc1ccc2cc(-c3c(C(=O)O)cccc3C(=O)O)ccc2c1	Nucleoprotein monomeric	binder, thermal shift	–	–	–	Tm	46 ± 1 °C
Cn1cnc2cc(-c3noc(-c4cccc(Cl)c4)n3)ccc21	VHL with elongin B/C	binding, TR-FRET	–	10 µM, 90 min, added: BODIPY FL VH032	–	inhibition	33.1%
CNC(C)C(=O)c1ccc(F)c(F)c1 (centres unmarked)	Slc6a3	dopamine release, releaser	rat brain synaptosomes	added: [3H]dopamine	reference: compound over methamphetamine	potency ratio	4.5 fold
COc1ccc2cc(C(CC(=O)O)CC(=O)O)ccc2c1	Nucleoprotein monomeric	–	–	–	reference: free NP	Tm shift	5 °C
CCC(C)n1c(C(=O)Nc2cnc(C(=O)NC)n(CC(C)C)c2=O)ncc(NC(=O)c2ncc(NC(=O)c3ccccc3)c(=O)[nH]2)c1=O (centres unmarked)	HSP90AA1	–	–	50 µM	–	inhibition	14.7%
CC(=O)N[C@@H](CCC(=O)O)C(=O)N[C@@H](CCC(N)=O)C(=O)N[C@H](C(=O)N[C@@H](CCC(=O)O)C(=O)N[C@@H](CC(C)C)C(=O)N[C@@H](CCC(=O)O)C(=O)N[C@@H](Cc1ccccc1)C(=O)N[C@@H](CC(=O)O)C(=O)O)C(C)C	Beta sliding clamp (Escherichia coli, UniProt P0A988)	HDX-MS	–	concentration not given, over 4 h, 37 °C	–	deuterium uptake	173 Da

Some of these lines once more:
SMILES	target	assay	test system	conditions	how to read	endpoint	value
CNC(C)C(=O)c1cccc([N+](=O)[O-])c1 (centres unmarked)	Slc6a3	dopamine release, releaser	rat brain synaptosomes	added: [3H]dopamine	reference: compound over methamphetamine	potency ratio	25 fold
CCOC(=O)C1C(OC(c2ccc(Cl)cc2)c2ccc(Cl)cc2)CC2CCC1N2C (single isomer, unassigned)	DRD2 (Homo sapiens, UniProt P14416)	binding, radioligand displacement	–	inactive if below 75% at 10000 nM	–	Ki	inactive
